Measured values collected from several papers.
Compare with care: the assays were run in different laboratories. “And” joins repeats or separate records; there may be more than shown. Numbers after ± are the reported error.
uncharacterized protein: uncharacterized protein (Spodoptera exigua, UniProt F1CEY0)
ALB: Albumin (ALB, Homo sapiens, UniProt P02768)
ADORA2A: Adenosine receptor A2a (ADORA2A, Homo sapiens, UniProt P29274)
JAK1: Tyrosine-protein kinase JAK1 (JAK1, Homo sapiens, UniProt P23458)

| Structure (SMILES) | target | assay | system | conditions | scale | measurement | value |
| --- | --- | --- | --- | --- | --- | --- | --- |
| CC(C)=CCCC(C)CCO (stereo not drawn) | uncharacterized protein | binding, 1-NPN competitive displacement | – | protein 2.0 µM, added: 1-NPN 20 µM | relative to: 1-NPN without compound, lower = stronger binding | relative fluorescence | 70.4% |
| C#Cc1cccc(Oc2ccc(-c3nn([C@@H]4CCCN(C(=O)C=C)C4)c4ncnc(N)c34)cc2)c1 | Aldehyde dehydrogenase 1A1 (ALDH1A1, Homo sapiens, UniProt P00352) | ABPP-SILAC | – | 1 µM, 1 h | relative to: DMSO | SILAC ratio | 20 |
| Cc1n[nH]c2ccc(-c3cc(OC[C@@H](N)Cc4ccccc4)cnc3-c3ccoc3)cc12 | Carbon catabolite-derepressing protein kinase (SNF1, Candida albicans, UniProt P52497) | kinase binding, competitor, MIB/MS competition, item: SNF1 | Candida albicans cell lysate | 10 µM | relative to: DMSO | log2 fold change | -1.78 |
| Nc1nc2c(ncn2[C@@H]2O[C@H](COP(=O)(O)OP(=O)(O)O)[C@@H](OP(=O)(O)OP(=O)(O)O)[C@H]2O)c(=O)[nH]1 | rpoZ/rpoC (Escherichia coli, UniProt P0A800+P0A8T7) | capture compound SILAC-MS | – | concentration not given | relative to: heavy over light | log2 fold change | 0.55 |
| C1CCCC1.C1CCCC1.[Cl][W][Cl] | ALB | binding, fluorescence quenching | – | 288 K | – | Gibbs free energy change | -4.75 kcal/mol |
| COc1cccc(F)c1-c1ccc(C(=O)NC[C@@H](N)C(=O)O)s1 | Glutamate receptor ionotropic, NMDA 1, with GluN2A (Grin1, Rattus norvegicus, UniProt P35439) | – | – | added: glutamate 300 µM | – | Hill slope | 1.4 |
| CC[C@H](C)[C@@H]1NC(=O)[C@H](Cc2ccc(-c3ccccc3)cc2)NC(=O)[C@H](CC2CCC2)NC(=O)[C@@H]2[C@@H](c3ccccc3)CCN2C(=O)[C@@H](NC(=O)[C@H](CCCNC(=N)N)NC(=O)[C@H](CCCNC(=N)N)NC(C)=O)CSSC[C@@H](C(=O)N[C@@H](CCCNC(=N)N)C(=O)N[C@@H](CCCNC(=N)N)C(N)=O)NC(=O)[C@H](C(C)C)NC(=O)[C@@H]2CCCN2C(=O)[C@H](CC(=O)O)NC(=O)[C@H](Cc2ccc(O)cc2)NC(=O)[C@H](CO)NC1=O | GTPase KRas, GDP-bound (KRAS, Homo sapiens, UniProt P01116, G12D) | affinity selection mass spectrometry | – | mixture library 3, added: protein titration up to 2.5 µM | lower is stronger binding | lowest bound protein concentration | 0.31 µM |
| Nc1ncnc2c1ncn2[C@@H]1O[C@H](COP(=O)(O)CP(=O)(O)OP(=O)(O)O)[C@@H](O)[C@H]1O | P2X purinoceptor 1 (P2RX1, Homo sapiens, UniProt P51575, M214A) | saturation binding | HEK293 | 25 nM | – | specific binding | 568 CCPM and 353 CCPM and 320 CCPM |
| Cc1ccsc1/C=C/c1nc(N)nc(-c2ccccc2O)n1 | ADORA2A | radioligand displacement | – | added: [3H]ZM241385 | – | ligand efficiency | 0.52 |
| COC(=O)c1cc(C(C)=NNc2nc(-c3ccc4c(c3)OCCCO4)cs2)ccc1O | Tyrosine-protein phosphatase non-receptor type 1 (PTPN1, Homo sapiens, UniProt P18031) | enzyme activity, inhibitor, Lineweaver-Burk kinetics | – | 1.5 µM | relative to: uninhibited control | Km decrease | 6.25% |
| C[C@H](CCC(C)(C)O)[C@H]1CC[C@H]2[C@@H]3CC=C4C[C@@](C)(O)CC[C@]4(C)[C@H]3CC[C@]12C | Glutamate NMDA receptor; GRIN1/GRIN2B (GRIN1/GRIN2B, Homo sapiens, UniProt Q05586+Q13224, F754A) | ion current, positive allosteric modulator, two-electrode voltage clamp | Xenopus oocytes | 10 µM, GluN1-F754A mutant, added: 100 µM glutamate and glycine | relative to: absence of compound | current potentiation | 157 ± 4.4% |
| CC(C)c1ccccc1 | uncharacterized protein | binding, competitor, fluorescence displacement | – | 20 µM, pH 7.4, added: 1-NPN 20 µM | relative to: 1-NPN alone | relative fluorescence | 69.2% |
| Cc1cc(-c2ccnc3[nH]cc(F)c23)cc(F)c1[C@@]1(O)[C@H](C)CN(C(=O)CN)C[C@@H]1C | JAK1 | ATP/ADP probe binding, KiNativ | HEK293T lysate | 10 µM, activation loop domain 2 | – | probe labelling inhibition | 64.8% |
| C[C@@H]1CC[C@H]2C(C)(C)[C@H]3C[C@@]12CC[C@@]3(C)O | uncharacterized protein | binding, competitor, fluorescence displacement | – | 20 µM, pH 7.4, added: 1-NPN 20 µM | relative to: 1-NPN alone | relative fluorescence | 67% |
| Nc1nc2c(ncn2[C@@H]2O[C@H](COP(=O)(O)O)[C@@H](O)[C@H]2O)c(=O)[nH]1 | GUK1 (Homo sapiens, UniProt Q16774) | enzyme activity, NADH-coupled | – | 125 µM, added: NaCl 10 mM | – | reaction velocity | 0.0664 µM/s and 0.0651 µM/s and 0.0673 µM/s |
| OC[C@H]1O[C@@H](Oc2cc3c(O)cc(O)cc3[o+]c2-c2ccc(O)cc2)[C@H](O)[C@@H](O)[C@@H]1O | ALB | binding, fluorescence quenching | – | 20 °C | – | Gibbs free energy | -5.82 kcal/mol |
| c1ccc(Nc2nccc(-c3cccnc3)n2)cc1 | ADORA2A | binding, radioligand competition | – | 30 µM, added: [3H]ZM241385 | – | displacement | 25 ± 3% |
| Cc1cc(-c2ccnc3[nH]cc(F)c23)cc(F)c1[C@@]1(O)[C@H](C)CN(C2CCS(=O)(=O)CC2)C[C@@H]1C | JAK1 | ATP/ADP probe binding, KiNativ | HEK293T lysate | 1 µM, Lys1 peptide domain 2 | – | probe labelling inhibition | 24% |
| [O-][S+]1CCCCS1 (stereo not drawn) | Superoxide dismutase [Cu-Zn] (SOD1, Homo sapiens, UniProt P00441, G94A) | LC-MS | human whole blood | 50 µM, 1 h, 37 °C | – | SOD1 dimer fraction | 9.41% |
| Cc1cc2c(cc1N1C(=O)c3cccc4c(Cl)ccc(c34)C1=O)n(C)c(=O)n2C | Transcription initiation factor TFIID subunit 1-like, BD2 (TAF1L, Homo sapiens, UniProt Q8IZX4) | – | – | 10 µM | – | delta Tm | 1.6 °C |
| O=[N+]([O-])c1cc(C(F)(F)F)ccc1NCc1ccsc1 | Endothelial PAS domain-containing protein 1, PAS-B domain (EPAS1, Homo sapiens, UniProt Q99814, N288A) | binding, ITC, reverse mode | – | – | – | ΔG | -8.54 ± 0.45 kcal/mol |
| CCCCC[C@H](O)/C=C/[C@H]1C(=O)C[C@H](O)[C@@H]1C/C=C\CCCC(=O)O | Prostaglandin D2 receptor (PTGDR, Homo sapiens, UniProt Q13258, M112A) | agonist, ONE-GO BRET | – | 1.25 µM (1.25 µM) | relative to: wild-type receptor maximum | Gs protein activation | 101% |
| NCCCC[C@H](N)C(=O)Nc1ccc2ccccc2c1 | Puromycin-sensitive aminopeptidase (Rattus norvegicus, UniProt F1M9V7) | substrate | – | – | – | Km | 5 µM |
| NC/C(=C\F)COc1cccc(Cn2c(=S)[nH]c(=O)c3[nH]cnc32)c1 | Amine oxidase copper-containing 3 (Canis lupus familiaris, UniProt A0A8I3MYY3) | inhibitor | dog adipose tissue | 0.0005 µM | – | inhibition | 14.1% |
| N[C@H](CNC(=O)c1ccc(-c2cccc(F)c2F)s1)C(=O)O | Glutamate receptor ionotropic, NMDA 1, with GluN2C (Grin1, Rattus norvegicus, UniProt P35439) | – | – | added: glutamate 300 µM | – | Hill slope | 1.47 |
| C=CC(=O)N1CCC[C@@H](n2nc(-c3ccc(Oc4ccccc4)cc3)c3c(N)ncnc32)C1 | BDNF/NT-3 growth factors receptor (NTRK2, Homo sapiens, UniProt Q16620) | – | – | 10 µM | – | remaining activity | 183% |
| COc1cccc(CC(NC(=O)CNCc2ccccc2)C(=O)O)c1I (stereo not drawn) | Kappa-type opioid receptor (OPRK1, Homo sapiens, UniProt P41145) | binding | – | concentration not given | – | activity | inactive |
| O=C(Nc1cnccc1Cl)N1CCN(Cc2ccc3c(c2)OC(F)(F)O3)CC1 | Fatty-acid amide hydrolase 1 (FAAH, Homo sapiens, UniProt O00519) | binding, ex vivo radioligand binding | human leucocytes | 200 µM, 15 min preincubation | relative to: vehicle DMSO | reduction of probe labelling | 24% |
| CC[C@H](C)[C@@H]1NC(=O)[C@H](C)NC(=O)[C@H]([C@@H](C)CC)NC(=O)[C@H](CCC(N)=O)NC(=O)[C@H](C)NC(=O)[C@H](CCCNC(=N)N)NC(=O)[C@H](C(C)C)NC(=O)[C@H](CC(C)C)NC(=O)[C@H](CCC(=O)O)NC(=O)[C@H](CCCNC(=N)N)NC(=O)CNC(=O)[C@@H](NC(=O)[C@H](CC(C)C)NC(=O)[C@H](CCCCN)NC(=O)[C@@H](NC(=O)[C@@H](NC(=O)[C@H](CCC(=O)O)NC(=O)[C@H](CCC(=O)O)NC(=O)[C@H](CCSC)NC(=O)[C@H](Cc2c[nH]c3ccccc23)NC(=O)[C@H](CO)NC(=O)[C@@H](N)CC(=O)O)C(C)C)[C@@H](C)CC)CSSC[C@@H]2NC(=O)[C@@H](NC(=O)[C@H](CCCCN)NC(=O)[C@H](CC(N)=O)NC(=O)[C@H](C)NC(=O)[C@H](CC(C)C)NC(=O)[C@H](C)NC(=O)[C@H](CO)NC(=O)[C@H](Cc3ccc(O)cc3)NC(=O)[C@H](CC(C)C)NC(=O)[C@H](CCC(N)=O)NC(=O)c3ccc(-c4c5ccc(=[N+](C)C)cc-5oc5cc(N(C)C)ccc45)c(C(=O)[O-])c3)CSSC[C@H](NC(=O)CNC(=O)[C@H](C(C)C)NC(=O)[C@H](Cc3c[nH]cn3)NC2=O)C(=O)N[C@@H]([C@@H](C)O)C(=O)N[C@@H](CCCCN)C(=O)N[C@@H](CCCNC(=N)N)C(=O)N[C@@H](CO)C(=O)N[C@@H](CC(C)C)C(=O)N[C@@H](C)C(=O)N[C@@H](CCCNC(=N)N)C(=O)N[C@@H](Cc2ccccc2)C(=O)N[C@H](C(=O)O)CSSC[C@@H](C(=O)NCC(=O)N[C@@H](CCSC)C(=O)N[C@@H](CO)C(=O)N[C@H](C(=O)N[C@@H](Cc2c[nH]c3ccccc23)C(=O)N[C@@H](CO)C(=O)O)[C@@H](C)O)NC1=O | Relaxin receptor 1 (RXFP1, Homo sapiens, UniProt Q9HBX9, F76A/Y80A) | binding, NanoBRET | – | concentration not given, added: relaxin 10 nM | – | fast dissociation fraction | 54% |
| O=C(O)C1CCCNC1 (stereo not drawn) | Sodium- and chloride-dependent taurine transporter (SLC6A6, Homo sapiens, UniProt P31641, G62A) | binding, microscale thermophoresis | – | 977 nM, room temperature, added: 50 nM labelled protein | higher = more binding | normalised MST signal | 0.0889 |
